{"data": "Assay results pooled from the literature", "note": "Each numbered part is a random draw from the data of one study; scales do not carry over between parts. Positions count from the first letter of the parent shown."}
{"data": "Block 1", "target": "Centromere-binding protein 1, full length, N-terminal tag (CBF1, Saccharomyces cerevisiae, UniProt P17106, residues 1-351)", "method": "protein-binding microarray", "molecule type": "double-stranded DNA, one strand shown", "sample": "in vitro", "tested at": "0.8 µM", "setting": "whole 60-bp probe, no competitor", "direction": "higher = stronger binding", "chain of UniProt P17106 (whole entry, looked up)": "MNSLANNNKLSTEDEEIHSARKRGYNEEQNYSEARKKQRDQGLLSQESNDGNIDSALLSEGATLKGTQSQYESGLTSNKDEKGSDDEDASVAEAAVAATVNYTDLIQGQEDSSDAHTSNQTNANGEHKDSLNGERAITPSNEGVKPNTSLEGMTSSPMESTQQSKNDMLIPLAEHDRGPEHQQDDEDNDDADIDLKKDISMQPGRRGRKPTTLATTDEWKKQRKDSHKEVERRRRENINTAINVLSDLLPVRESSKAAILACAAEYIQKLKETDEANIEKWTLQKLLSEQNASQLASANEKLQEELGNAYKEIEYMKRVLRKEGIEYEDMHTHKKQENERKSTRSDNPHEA"}
{"Strand": "GAATCACGTGTTTTCCATGCGTGCGTTGCTTCTTAGGTCTTGATTCGCTTGACGCTGCTG", "fluorescence intensity": "15700 a.u."}
{"Strand": "CTAGCTTAATGGAATAACGTGATTTTTGTACCATTCGTCTTGATTCGCTTGACGCTGCTG", "fluorescence intensity": "1430 a.u."}
{"Strand": "CTATATGAGCGAGGAAACGTGATTGAGAGTTATTTCGTCTTGATTCGCTTGACGCTGCTG", "fluorescence intensity": "1150 a.u."}
{"Strand": "GAATAACTCATCTTGCACATGCTATTCTTTTCGTAGGTCTTGATTCGCTTGACGCTGCTG", "fluorescence intensity": "715 a.u."}
{"data": "Block 2", "target": "CCNF, cyclin fold, Cln2 fusion (human)", "method": "yeast growth competition, sequencing", "sample": "yeast", "setting": "strong parent motif", "reference": "not given", "direction": "higher = stronger binding", "starting sequence": "RBL1 docking peptide (human); GSAKRRLFGEDPP"}
{"Substitution": "GSEKRRLFGEDPP [A3E]", "normalised enrichment score": 2.7}
{"Substitution": "GEAKRRLFGEDPP [S2E]", "normalised enrichment score": 5.5}
{"Substitution": "GSAKRRLFGCDPP [E10C]", "normalised enrichment score": 6.29}
{"Substitution": "PSAKRRLFGEDPP [G1P]", "normalised enrichment score": 8.37}
{"data": "Block 3", "target": "RING finger protein unkempt homolog, zinc fingers 1-6, SBP tag (UNK, Homo sapiens, UniProt Q9C0B0, residues 30-357)", "method": "RNA Bind-n-Seq", "molecule type": "RNA", "sample": "in vitro", "tested at": "100 nM", "setting": "RNA with constant flanks, vertebrate orthologous sites, ends assumed", "reference": "input RNA pool", "direction": "higher = stronger binding", "chain of UniProt Q9C0B0 (30-357, looked up)": "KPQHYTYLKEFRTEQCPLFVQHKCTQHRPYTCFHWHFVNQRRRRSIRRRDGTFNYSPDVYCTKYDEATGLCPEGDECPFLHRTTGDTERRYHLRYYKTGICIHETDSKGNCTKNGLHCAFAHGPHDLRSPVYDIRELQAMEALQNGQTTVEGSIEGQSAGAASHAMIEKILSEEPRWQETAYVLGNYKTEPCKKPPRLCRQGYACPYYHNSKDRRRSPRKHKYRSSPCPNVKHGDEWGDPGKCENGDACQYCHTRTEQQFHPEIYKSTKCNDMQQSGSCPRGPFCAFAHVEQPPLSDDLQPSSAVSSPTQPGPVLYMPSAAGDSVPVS"}
{"Strand": "GGGAGUUCUACAGUCCGACGAUCGUAAUGCAUUUUGCGACUUGGAUGUGGUCUGCACAGGAAGCUGCUGGCCCCGCCACAACACAUACAGUUUUUGUCUUUUUUUAAAAAGUUAAAACUGAAUUUAAUUUACUAAAAUUGUAACAACAGAGGAUUGAGCAUCA", "bound/input enrichment [ratio]": 0.164}
{"Strand": "GGGAGUUCUACAGUCCGACGAUCCAUUAACACACAAAAUGUCUCCAGGGGGGUAUUAGAUUUGAUUUCUUACAUACAAAACAAACAAAACAAACAAACCAUUUUUAAAGUAGAAGAGGGUUUUAGAUAGAAAAUGACAUAUUCCAACAGAGGAUUGAGCAUCA", "bound/input enrichment [ratio]": 1.9}
{"Strand": "GGGAGUUCUACAGUCCGACGAUCAUGCAUAUGCCGCUCACCAAAAGCAAACUACCACUUCUCAAAUUUCAUUCAGAGCUGUUUUAGUGUUUCCUAUUCCCCACCCUUCCCACUACUUUCAAUGAUCAAAUAUUCUAAGUUCUCCAACAGAGGAUUGAGCAUCA", "bound/input enrichment [ratio]": 2.07}
{"data": "Other studies, line by line"}
{"Molecule": "PhoQ, residues 284 288 289 292 302 303 GANMMA", "target": "PhoP, residues 12 14 15 18 19 NNFVT (Escherichia coli, UniProt P23836)", "assay": "Sort-seq, refers to: YFP reporter", "system": "E. coli", "setting": "PhoQ-PhoP variant library, added: 10 µM Mg2+", "how to read": "reference: high Mg2+ state, higher = stronger signaling", "quantity": "fold induction", "value": 1.36}
{"note": "Repeated from above (block 1):"}
{"Strand": "GAATAACTCATCTTGCACATGCTATTCTTTTCGTAGGTCTTGATTCGCTTGACGCTGCTG", "fluorescence intensity": "715 a.u."}
